Assay results pooled from the literature.
± marks the error that the study gave.
Technique: steady-state kinetics
B1: UGT1A9 (Homo sapiens, UniProt O60656); chain GKLLVVPMDGSHWFTMRSVVEKLILRGHEVVVVMPEVSWQLGRSLNCTVKTYSTSYTLEDLDREFKAFAHAQWKAQVRSIYSLLMGSYNDIFDLFFSNCRSLFKDKKLVEYLKESSFDAVFLDPFDNCGLIVAKYFSLPSVVFARGILCHYLEEGAQCPAPLSYVPRILLGFSDAMTFKERVRNHIMHLEEHLLCHRFFKNALEIASEILQTPVTEYDLYSHTSIWLLRTDFVLDYPKPVMPNMIFIGGINCHQGKPLPMEFEAYINASGEHGIVVFSLGSMVSEIPEKKAMAIADALGKIPQTVLWRYTGTRPSNLANNTILVKWLPQNDLLGHPMTRAFITHAGSHGVYESICNGVPMVMMPLFGDQMDNAKRMETKGAGVTLNVLEMTSEDLENALKAVINDKSYKENIMRLSSLHKDRPVEPLDLAVFWVEFVMRHKGAPHLRPAAHDLTWYQYHSLDVIGFLLAVVLTVAFITFKCCAYGYRKCLGKKGRVKKAHKSKTH
B2: CYP6A8 (Drosophila melanogaster, UniProt Q27593); chain MALTYILFQVAVALLAILTYYIHRKLTYFKRRGIPFVAPHLIRGNMEELQKTKNIHEIFQDHYNKFRESKAPFVGFFFFQSPAAFVIDLELAKQILIKDFSNFSNKGIFYNEKDDPISAHLFNLDGAQWRLLRNKLSSTFTSGKMKLMYPTVVSVANEFMTVMHEKVPKNSVLEIRDLVARFTVDVIGTCAFGIQCNSLRDEKAEFLYFGKRSLVDKRHGTLLNGFMRSYPKLARKLGMVRTAPHIQEFYSRIVTETVAVREKEHIKRNDFMDMLIELKNQKEMTLENGDVVRGLTMEEVLAQAFVFFIAGFETSSSTMGFALYELAKNPDIQDKVRAEVEEVIEQHDQNFTYECTKDLKYLNQVLDETLRLYTIVPNLDRMAAKRYVVPGHPNFVIEAGQSVIIPSSAIHHDPSIYPEPFEFRPERFSPEESAGRPSVAWLPFGDGPRNCIGLRFGQMQARIGLALLIRNFKFSTCSKTPNPLVYDPKSFVLGVKDGIYLKVETV
B3: ycjS (Escherichia coli, UniProt P77503); chain MKSAMTSSPLRVAIIGAGQVADKVHASYYCTRNDLELVAVCDSRLSQAQALAEKYGNASVWDDPQAMLLAVKPDVVSVCSPNRFHYEHTLMALEAGCHVMCEKPPAMTPEQAREMCDTARKLGKVLAYDFHHRFALDTQQLREQVTNGVLGEIYVTTARALRRCGVPGWGVFTNKELQGGGPLIDIGIHMLDAAMYVLGFPAVKSVNAHSFQKIGTQKSCGQFGEWDPATYSVEDSLFGTIEFHNGGILWLETSFALNIREQSIMNVSFCGDKAGATLFPAHIYTDNNGELMTLMQREIADDNRHLRSMEAFINHVQGKPVMIADAEQGYIIQQLVAALYQSAETGTRVEL
B4: enzyme (Halalkalibacterium halodurans, UniProt Q9KCN8); chain MLNVTQLQEATTFIQQQIETKPTIGLILGSGLGILADEIEQPVKVPYSDIPHFPVSTVQGHAGQLVIGMLEGKQVIAMQGRFHFYEGYSLEVVTFPVRVMKALGVEQIIVTNAAGGVNESFEAGDLMIIRDHINNMAQNPLIGPNDEAFGVRFPDMSNAYSERLRTLAKEKGNTLNLKLQEGVYVANTGPVYETPAEVRMIRKLGGDAVGMSTVPEVIVARHAGLEVLGISCISNMAAGILPQPLSHDEVIETTERVRQDFLNLVKAIVKDM
B5: ERAP1 (Homo sapiens, UniProt Q9NZ08); chain MVFLPLKWSLATMSFLLSSLLALLTVSTPSWCQSTEASPKRSDGTPFPWNKIRLPEYVIPVHYDLLIHANLTTLTFWGTTKVEITASQPTSTIILHSHHLQISRATLRKGAGERLSEEPLQVLEHPRQEQIALLAPEPLLVGLPYTVVIHYAGNLSETFHGFYKSTYRTKEGELRILASTQFEPTAARMAFPCFDEPAFKASFSIKIRREPRHLAISNMPLVKSVTVAEGLIEDHFDVTVKMSTYLVAFIISDFESVSKITKSGVKVSVYAVPDKINQADYALDAAVTLLEFYEDYFSIPYPLPKQDLAAIPDFQSGAMENWGLTTYRESALLFDAEKSSASSKLGITMTVAHELAHQWFGNLVTMEWWNDLWLNEGFAKFMEFVSVSVTHPELKVGDYFFGKCFDAMEVDALNSSHPVSTPVENPAQIREMFDDVSYDKGACILNMLREYLSADAFKSGIVQYLQKHSYKNTKNEDLWDSMASICPTDGVKGMDGFCSRSQHSSSSSHWHQEGVDVKTMMNTWTLQKGFPLITITVRGRNVHMKQEHYMKGSDGAPDTGYLWHVPLTFITSKSDMVHRFLLKTKTDVLILPEEVEWIKFNVGMNGYYIVHYEDDGWDSLTGLLKGTHTAVSSNDRASLINNAFQLVSIGKLSIEKALDLSLYLKHETEIMPVFQGLNELIPMYKLMEKRDMNEVETQFKAFLIRLLRDLIDKQTWTDEGSVSERMLRSQLLLLACVHNYQPCVQRAEGYFRKWKESNGNLSLPVDVTLAVFAVGAQSTEGWDFLYSKYQFSLSSTEKSQIEFALCRTQNKEKLQWLLDESFKGDKIKTQEFPQILTLIGRNPVGYPLAWQFLRKNWNKLVQKFELGSSSIAHMVMGTTNQFSTRTRLEEVKGFFSSLKENGSQLRCVQQTIETIEENIGWMDKNFDKIRVWLQSEKLEHDPEADATG
B6: Pck1 A467G (Rattus norvegicus, UniProt P07379); chain MPPQLHNGLDFSAKVIQGSLDSLPQEVRKFVEGNAQLCQPEYIHICDGSEEEYGRLLAHMQEEGVIRKLKKYDNCWLALTDPRDVARIESKTVIITQEQRDTVPIPKSGQSQLGRWMSEEDFEKAFNARFPGCMKGRTMYVIPFSMGPLGSPLAKIGIELTDSPYVVASMRIMTRMGTSVLEALGDGEFIKCLHSVGCPLPLKKPLVNNWACNPELTLIAHLPDRREIISFGSGYGGNSLLGKKCFALRIASRLAKEEGWLAEHMLILGITNPEGKKKYLAAAFPSACGKTNLAMMNPTLPGWKVECVGDDIAWMKFDAQGNLRAINPENGFFGVAPGTSVKTNPNAIKTIQKNTIFTNVAETSDGGVYWEGIDEPLAPGVTITSWKNKEWRPQDEEPCAHPNSRFCTPASQCPIIDPAWESPEGVPIEGIIFGGRRPAGVPLVYEALSWQHGVFVGAAMRSEATAGAEHKGKVIMHDPFAMRPFFGYNFGKYLAHWLSMAHRPAAKLPKIFHVNWFRKDKNGKFLWPGFGENSRVLEWMFGRIEGEDSAKLTPIGYVPKEDALNLKGLGDVNVEELFGISKEFWEKEVEEIDKYLEDQVNADLPYEIERELRALKQRISQM
B7: protein (Pseudomonas putida, UniProt Q1XGK8); chain MKEIKHFINGAFVGSASGRTFEDINPSNGQVIGHVHEAGRAEVDAAVKAARAALKGPWGKLSVAERAEILHRVADGITARFDEFLEAECLDTGKPKSLASHIDIPRGAANFKVFADLLKNVANEAFEMATPDGAGAINYAVRRPKGVIGVISPWNLPLLLMTWKVGPALACGNTVVVKPSEETPLTATLLGEVMQAAGVPAGVYNVVHGFGGDSAGAFLTEHPDVDAYTFTGETGTGEVIMRAAAKGVRQVSLELGGKNAGIVFADCDMDKAIEGTLRSAFANCGQVCLGTERVYVERPIFDEFVARLKAGAESLMIGPPDDASSNFGPLVSLKHREKVLSYYQQAVDDGGSVITGGGVPDMPAHLAGGAWVQPTIWTGLSDDSAVVTEEIFGPCCHIRPFDTEEEAIELANSLPYGLASAIWTENGSRAHRVAGQIEAGIVWVNSWFLRDLRTAFGGSKQSGIGREGGVHSLEFYTELKNICVKL
B8: UCK2 (Homo sapiens, UniProt Q9BZX2); chain MAGDSEQTLQNHQQPNGGEPFLIGVSGGTASGKSSVCAKIVQLLGQNEVDYRQKQVVILSQDSFYRVLTSEQKAKALKGQFNFDHPDAFDNELILKTLKEITEGKTVQIPVYDFVSHSRKEETVTVYPADVVLFEGILAFYSQEVRDLFQMKLFVDTDADTRLSRRVLRDISERGRDLEQILSQYITFVKPAFEEFCLPTKKYADVIIPRGADNLVAINLIVQHIQDILNGGPSKRQTNGCLNGYTPSRKRQASESSSRPH
Sequence of UniProt Q8PWY1 (whole entry, looked up): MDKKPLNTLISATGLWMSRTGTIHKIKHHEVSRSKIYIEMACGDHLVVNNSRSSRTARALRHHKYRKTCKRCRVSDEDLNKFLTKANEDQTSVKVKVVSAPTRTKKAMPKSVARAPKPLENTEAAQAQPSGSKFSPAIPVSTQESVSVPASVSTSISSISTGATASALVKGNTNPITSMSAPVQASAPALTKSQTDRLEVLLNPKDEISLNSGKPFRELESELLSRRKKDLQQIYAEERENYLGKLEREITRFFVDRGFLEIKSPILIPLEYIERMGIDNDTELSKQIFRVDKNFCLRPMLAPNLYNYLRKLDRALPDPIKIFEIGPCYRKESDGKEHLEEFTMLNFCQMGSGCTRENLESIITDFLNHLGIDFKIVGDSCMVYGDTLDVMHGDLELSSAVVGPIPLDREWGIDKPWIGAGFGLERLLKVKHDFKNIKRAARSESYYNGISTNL
Sequence of UniProt P07914 (whole entry, looked up): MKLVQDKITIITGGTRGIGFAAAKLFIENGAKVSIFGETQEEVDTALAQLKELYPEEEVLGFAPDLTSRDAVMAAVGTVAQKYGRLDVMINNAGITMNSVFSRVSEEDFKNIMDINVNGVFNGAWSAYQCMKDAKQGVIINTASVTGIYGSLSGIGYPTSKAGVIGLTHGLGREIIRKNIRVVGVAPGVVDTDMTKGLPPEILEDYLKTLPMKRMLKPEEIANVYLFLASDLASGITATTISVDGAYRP
Sequence of UniProt Q47898 (whole entry, looked up): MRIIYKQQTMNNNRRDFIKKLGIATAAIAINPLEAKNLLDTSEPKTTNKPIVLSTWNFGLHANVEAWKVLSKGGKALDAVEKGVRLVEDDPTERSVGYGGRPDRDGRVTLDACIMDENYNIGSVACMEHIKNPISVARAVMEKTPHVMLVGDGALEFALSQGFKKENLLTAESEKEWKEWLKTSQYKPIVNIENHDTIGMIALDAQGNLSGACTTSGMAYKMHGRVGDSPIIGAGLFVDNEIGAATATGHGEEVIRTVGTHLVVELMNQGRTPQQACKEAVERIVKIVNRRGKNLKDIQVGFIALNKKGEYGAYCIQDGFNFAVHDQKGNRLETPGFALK
Sequence of UniProt P34752 (whole entry, looked up): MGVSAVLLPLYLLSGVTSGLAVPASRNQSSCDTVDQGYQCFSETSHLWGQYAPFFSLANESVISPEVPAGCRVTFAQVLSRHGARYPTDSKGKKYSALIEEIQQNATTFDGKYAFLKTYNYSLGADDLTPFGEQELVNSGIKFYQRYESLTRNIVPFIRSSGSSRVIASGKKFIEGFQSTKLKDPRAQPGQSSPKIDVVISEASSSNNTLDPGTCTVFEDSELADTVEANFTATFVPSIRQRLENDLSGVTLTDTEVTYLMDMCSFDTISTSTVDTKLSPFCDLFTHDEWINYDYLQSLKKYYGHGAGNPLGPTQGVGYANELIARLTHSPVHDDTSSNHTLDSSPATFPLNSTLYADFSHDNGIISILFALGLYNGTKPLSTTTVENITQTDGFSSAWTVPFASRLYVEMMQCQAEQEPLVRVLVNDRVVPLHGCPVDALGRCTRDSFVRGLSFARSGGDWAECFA
Sequence of UniProt Q9LUE2 (whole entry, looked up): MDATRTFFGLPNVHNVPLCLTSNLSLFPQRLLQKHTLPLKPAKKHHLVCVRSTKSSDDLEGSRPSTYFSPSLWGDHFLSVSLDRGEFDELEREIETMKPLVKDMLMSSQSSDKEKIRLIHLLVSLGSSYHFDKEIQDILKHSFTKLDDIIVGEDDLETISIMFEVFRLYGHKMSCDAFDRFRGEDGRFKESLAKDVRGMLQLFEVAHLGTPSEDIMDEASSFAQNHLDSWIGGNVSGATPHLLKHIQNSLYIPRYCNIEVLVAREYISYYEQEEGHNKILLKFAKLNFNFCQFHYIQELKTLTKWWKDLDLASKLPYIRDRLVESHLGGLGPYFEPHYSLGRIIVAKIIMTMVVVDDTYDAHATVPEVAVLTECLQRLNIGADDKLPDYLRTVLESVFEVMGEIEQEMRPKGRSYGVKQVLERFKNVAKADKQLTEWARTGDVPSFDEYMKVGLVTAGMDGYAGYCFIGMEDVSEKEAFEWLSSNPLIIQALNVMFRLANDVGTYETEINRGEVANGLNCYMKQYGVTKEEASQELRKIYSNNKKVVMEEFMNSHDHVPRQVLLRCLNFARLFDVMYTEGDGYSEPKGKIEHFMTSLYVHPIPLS

| Molecule | substrate | system | conditions | measurement | result |
| --- | --- | --- | --- | --- | --- |
| enzyme (Triticum aestivum, UniProt A0A6J4BJM5) | O=C1[C@@H](O[C@@H]2O[C@H](CO)[C@@H](O)[C@H](O)[C@H]2O)Oc2ccccc2N1O | – | pH 7.2, 30 °C | kcat | 0.433 s⁻¹ |
| B1 (UGT1A9) | COc1ccccc1-c1cc(=O)c2ccc(O)cc2o1 | – | pH 7.4, 37 °C | Km | 2.21 µM |
| enzyme (Elizabethkingia miricola, UniProt Q47898) | CC(=O)N[C@@H]1[C@@H](O)[C@H](O)[C@@H](CO)O[C@H]1NC(=O)C[C@H](N)C(=O)O | – | pH 7.5, 37 °C | kcat | 14.2 ± 0.99 s⁻¹ |
| B2 (CYP6A8) | CCCCCCCCCCCC(=O)O | DLPC | pH 7.4, 37 °C, total hydroxylation, added: P450 reductase, NADPH | kcat | 0.000633 ± 3.33e-05 s⁻¹ |
| B3 (ycjS) | OC[C@H]1OC[C@H](O)[C@@H](O)[C@@H]1O | – | pH 8, 30 °C, added: NAD+ 2.0 mM | kcat | 0.17 ± 0.01 s⁻¹ |
| WlbA (Thermus thermophilus, UniProt Q72KX8) | O=C(O)CCC(=O)C(=O)O | – | pH 8.5, 25 °C, added: enzyme-bound NAD(H) | kcat | 240 ± 10 s⁻¹ |
| pylS (Methanosarcina mazei, UniProt Q8PWY1) | C[C@@H]1CC=N[C@H]1C(=O)NCCCC[C@H](N)C(=O)O | – | pH 7.2, 37 °C, apparent | kcat | 0.0012 ± 0.0001 s⁻¹ |
| B4 (enzyme) | OC[C@H]1O[C@@H](n2cnc3c(O)ncnc32)[C@H](O)[C@@H]1O | – | – | kcat | 28000 s⁻¹ |
| enzyme (UniProt A0A7J5BGR1) | C=CCc1ccc(O)c(OC)c1 | – | pH 8, 25 °C | kcat | 0.75 s⁻¹ |
| B5 (ERAP1) | CC(C)C[C@H](NC(=O)CNC(=O)[C@H](CCC(=O)O)NC(=O)[C@H](Cc1ccccc1)NC(=O)[C@H](CCCNC(=N)N)NC(=O)[C@H](CCCCN)NC(=O)[C@@H](N)Cc1ccc(O)cc1)C(=O)N[C@H](C(=O)N[C@@H](CCC(N)=O)C(=O)N[C@@H](CCCNC(=N)N)C(=O)O)[C@@H](C)O | – | 25 °C | kcat | 0.304 ± 0.052 s⁻¹ |
| B6 (Pck1 A467G) | C=C(OP(=O)(O)O)C(=O)O | – | pH 7.5, 25 °C | kcat | 1 ± 0.1 s⁻¹ |
| enzyme (Streptomyces filamentosus, UniProt A0ABY4UVI6) | CSc1c(O)cc(-c2ccccn2)nc1C(=O)N[C@@H](CC(C)C)C(=O)O | – | pH 8, 30 °C | kcat | 0.0132 ± 0.000333 s⁻¹ |
| B7 (protein) | O=C/C=C/C=C(\O)C(=O)O | – | pH 8.5, 25 °C, NaCl 50 mM, added: NAD+ 200 µM | kcat | 0.9 s⁻¹ |
| α-amino ester hydrolase (Xanthomonas campestris, UniProt Q8P8K4) | CC1=C(C(=O)O)N2C(=O)[C@@H](NC(=O)[C@H](N)c3ccccc3)[C@H]2SC1 | – | pH 7, 25 °C, phosphate 100 mM | kcat | 200 s⁻¹ |
| BaiA1 (Clostridium scindens, UniProt P07914) | C[C@H](CCC(=O)SCCNC(=O)CCNC(=O)[C@H](O)C(C)(C)COP(=O)(O)OP(=O)(O)OC[C@H]1O[C@@H](n2cnc3c(N)ncnc32)[C@H](O)[C@@H]1OP(=O)(O)O)[C@H]1CC[C@H]2[C@@H]3[C@H](O)C[C@@H]4CC(=O)CC[C@]4(C)[C@H]3CC[C@]12C | – | pH 8.7, 37 °C, added: NADH | kcat | 0.4 s⁻¹ |
| B8 (UCK2) | O=c1ccn([C@@H]2O[C@H](CO)[C@@H](O)[C@H]2O)c(=O)[nH]1 | – | pH 7.2, 25 °C, KCl 100 mM, added: ATP 100–200 µM | kcat | 5.2 ± 0.5 s⁻¹ |
| phyA (Aspergillus niger, UniProt P34752) | O=P(O)(O)O[C@@H]1[C@H](OP(=O)(O)O)[C@H](O)[C@@H](O)[C@H](O)[C@H]1OP(=O)(O)O | – | pH 5, 37 °C | kcat | 106 ± 11 s⁻¹ |
| AtTPS18 (Arabidopsis thaliana, UniProt Q9LUE2) | CC(C)=CCC/C(C)=C/CC/C(C)=C/CC/C(C)=C/CC/C(C)=C/COP(=O)(O)OP(=O)(O)O | – | pH 7.5, 30 °C, product C7 measured, added: Mg2+ 10 mM | kcat | 0.11 ± 0.017 s⁻¹ |

A few entries again:
| Molecule | substrate | system | conditions | measurement | result |
| --- | --- | --- | --- | --- | --- |
| enzyme (Elizabethkingia miricola, UniProt Q47898) | CC(=O)N[C@@H]1[C@@H](O)[C@H](O)[C@@H](CO)O[C@H]1NC(=O)C[C@H](N)C(=O)O | – | pH 7.5, 37 °C | kcat | 14.2 ± 0.99 s⁻¹ |
| B6 (Pck1 A467G) | C=C(OP(=O)(O)O)C(=O)O | – | pH 7.5, 25 °C | kcat | 1 ± 0.1 s⁻¹ |
| B4 (enzyme) | OC[C@H]1O[C@@H](n2cnc3c(O)ncnc32)[C@H](O)[C@@H]1O | – | – | kcat | 28000 s⁻¹ |
